{"data": "Assay results collected from several papers", "note": "Lines come from different studies, so protocols differ. Numbers after ± are the reported error."}
{"Structure (SMILES)": "O=C(N/N=C/c1ccc2c(ccc[n+]2Cc2ccccc2)c1)c1cc(C(=O)N/N=C/c2ccc3c(ccc[n+]3Cc3ccccc3)c2)ncn1", "target or system": "myc22 MYC G4-DNA parallel", "test": "FRET melting", "conditions": "1 µM, K1 buffer, DNA 0.2 µM, added: ds26 10 µM", "endpoint": "ΔTm", "result": "7.6 ± 0.2 °C"}
{"Structure (SMILES)": "Nc1ncc(-c2cc(-c3cnn(CC(F)(F)F)c3)ncc2F)nc1C(=O)NC1CNCC(F)C1 (stereo not drawn)", "target or system": "TIE2", "test": "KINOMEscan competition binding", "conditions": "1 µM", "how to read": "reference: DMSO control", "endpoint": "remaining binding", "result": "86%"}
{"Structure (SMILES)": "CNS(=O)(=O)Nc1nccc(Cc2c(C)c3ccc(Oc4ncccc4F)cc3oc2=O)c1F", "target or system": "UWB1289", "test": "cell viability", "conditions": "7 days", "endpoint": "IC50", "result": "> 1000 nM"}
{"Structure (SMILES)": "COc1cc(O)ccc1CCC(c1ccc(O)cc1)c1cc2c(c(C)c1O)OC(c1ccc(O)cc1)CC2 (mixture of isomers)", "system": "human blood", "conditions": "30 µM, added: A23187", "endpoint": "DHA level", "result": "114000 ± 38400 pg/mL"}
{"Structure (SMILES)": "CCN(CC)CC(=O)Nc1cccc(-n2cc(-c3ccc4ccc(-c5cn(-c6cccc(NC(=O)CN(CC)CC)c6)nn5)cc4c3)nn2)c1", "target or system": "RCC4", "test": "PCR angiogenesis array, item: MDK", "conditions": "5 x IC50, 2 h, normoxia", "how to read": "reference: untreated", "endpoint": "fold regulation", "result": 1.24}
{"Structure (SMILES)": "C=CC(=O)Nc1cccc(Cn2ncc3cnc(Nc4cnn(CCOC)c4)nc32)c1", "target or system": "TTK human", "test": "binding, KINOMEscan", "conditions": "100 nM", "how to read": "lower = stronger binding", "endpoint": "percent of control", "result": "59%"}
{"Structure (SMILES)": "COC1CN([C@H]2CC[C@H]([C@@]3(C)Oc4c(Cl)cc(C(=O)NCc5c(SC)cc(C)[nH]c5=O)c(C)c4O3)CC2)C1", "test": "RNA-seq, item: IGSF3", "system": "human, whole blood", "conditions": "dose not given, 24 h", "how to read": "reference: pretreatment baseline", "endpoint": "log2 fold change", "result": 4.9}
{"Structure (SMILES)": "O=C(N/N=C/c1ccc2c(ccc[n+]2Cc2ccccc2)c1)C(=O)N/N=C/c1ccc2c(ccc[n+]2Cc2ccccc2)c1", "target or system": "myc22 MYC G4-DNA parallel", "test": "FRET melting", "conditions": "1 µM, K1 buffer, DNA 0.2 µM", "endpoint": "ΔTm", "result": "5 ± 0.5 °C"}
{"Structure (SMILES)": "Cc1ncsc1-c1ccc(C(C)NC(=O)C2CC(O)CN2C(=O)C(NC(=O)CCCCCCCCCCN2CCCC(Nc3ncc(Cl)c(Nc4ccccc4S(=O)(=O)C(C)C)n3)C2)C(C)(C)C)cc1 (stereo not drawn)", "target or system": "22Rv1", "test": "RNA-seq, item: SIMC1 mRNA", "conditions": "concentration not given", "how to read": "reference: DMSO", "endpoint": "log2 fold change", "result": -1.89}
{"Structure (SMILES)": "CC[n+]1cccc2cc(/C=N/NC(=O)c3ccc4ccc(C(=O)N/N=C/c5ccc6c(ccc[n+]6CC)c5)nc4n3)ccc21", "target or system": "myc22 MYC G4-DNA parallel", "test": "FRET melting", "conditions": "1 µM, K1 buffer, DNA 0.2 µM, added: ds26 10 µM", "endpoint": "ΔTm", "result": "15.5 ± 0.6 °C"}
{"Structure (SMILES)": "C=CC(=O)N1[C@@H](c2ccc3c(c2)OCO3)c2[nH]c3ccccc3c2C[C@H]1C(=O)N1CCN(C)CC1", "target or system": "human cyclin E1 N112C-3xFLAG:CDK2", "test": "co-IP with TMT proteomics, item: SRSF3", "conditions": "concentration not given, P84103", "how to read": "reference: wild type DMSO", "endpoint": "relative co-enrichment", "result": "140%"}
{"Structure (SMILES)": "O=C(N/N=C/c1cc[n+](Cc2ccccc2)c2ccccc12)c1cc(C(=O)N/N=C/c2cc[n+](Cc3ccccc3)c3ccccc23)ncn1", "target or system": "myc22 MYC G4-DNA parallel", "test": "FRET melting", "conditions": "1 µM, K1 buffer, DNA 0.2 µM", "endpoint": "ΔTm", "result": "8.3 ± 0.1 °C"}
{"Structure (SMILES)": "C=C(NC(=O)c1csc(-c2nc3c(cc2O)-c2nc(cs2)C(=O)NC(C(C)O)C(=O)NC(=C(C)OC)c2nc(cs2)C(=O)NC2c4nc(cs4)C(=O)NC(COC(=O)c4c5c6c(cccc6n4O)COC(=O)C(OC4CC(C)(O)C(N(C)C)C(C)O4)C2OC5)c2nc-3cs2)n1)C(N)=O (stereo not drawn)", "target or system": "Enterococcus faecalis", "system": "vancomycin-intermediate, 10 isolates", "conditions": "pH 5.5", "endpoint": "MIC50", "result": "0.0312 µg/mL"}
{"Structure (SMILES)": "O=C(N/N=C/c1ccc(C[n+]2ccccc2)cc1)c1ccc2ccc(C(=O)N/N=C/c3ccc(C[n+]4ccccc4)cc3)nc2n1", "target or system": "myc22 MYC G4-DNA parallel", "test": "FRET melting", "conditions": "1 µM, K1 buffer, DNA 0.2 µM", "endpoint": "ΔTm", "result": "13.3 ± 1.2 °C"}
{"Structure (SMILES)": "CN1CCCNC(=O)c2cccc(c2)C(=O)NCCCN(C)CCCNc2cccc3c2C(=O)c2cccc(c2C3=O)NCCC1", "target or system": "SAS", "test": "RNA-Seq, item: SRSF5 mRNA", "conditions": "1 µM, 6 h", "how to read": "reference: untreated cells", "endpoint": "log2 fold change", "result": -0.844}
{"note": "A few entries again:"}
{"Structure (SMILES)": "COc1cc(O)ccc1CCC(c1ccc(O)cc1)c1cc2c(c(C)c1O)OC(c1ccc(O)cc1)CC2 (mixture of isomers)", "system": "human blood", "conditions": "30 µM, added: A23187", "endpoint": "DHA level", "result": "114000 ± 38400 pg/mL"}
{"Structure (SMILES)": "Nc1ncc(-c2cc(-c3cnn(CC(F)(F)F)c3)ncc2F)nc1C(=O)NC1CNCC(F)C1 (stereo not drawn)", "target or system": "TIE2", "test": "KINOMEscan competition binding", "conditions": "1 µM", "how to read": "reference: DMSO control", "endpoint": "remaining binding", "result": "86%"}
